Published values from different studies.
Protocols differ between the studies behind these lines.
Technique: steady-state kinetics
B1: UGT3A2 Y74N (Homo sapiens, UniProt Q3SY77); chain AKILTISTVGGSHYLLMDRVSQILQDHGHNVTMLNHKRGPFMPDFKKEEKSNQVISWLAPEDHQREFKKSFDFFLEETLGGRGKFENLLNVLEYLALQCSHFLNRKDIMDSLKNENFDMVIVETFDYCPFLIAEKLGKPFVAILSTSFGSLEFGLPIPLSYVPVFRSLLTDHMDFWGRVKNFLMFFSFCRRQQHMQSTFDNTIKEHFTEGSRPVLSHLLLKAELWFINSDFAFDFARPLLPNTVYVGGLMEKPIKPVPQDLENFIAKFGDSGFVLVTLGSMVNTCQNPEIFKEMNNAFAHLPQGVIWKCQCSHWPKDVHLAANVKIVDWLPQSDLLAHPSIRLFVTHGGQNSIMEAIQHGVPMVGIPLFGDQPENMVRVEAKKFGVSIQLKKLKAETLALKMKQIMEDKRYKSAAVAASVILRSHPLSPTQRLVGWIDHVLQTGGATHLKPYVFQQPWHEQYLLDVFVFLLGLTLGTLWLCGKLLGMAVWWLRGARKVKET
B2: LYS1 C205S/K99M (Saccharomyces cerevisiae, UniProt P38998); chain MAAVTLHLRAETKPLEARAALTPTTVKKLIAKGFKIYVEDSPQSTFNINEYRQAGAIIVPAGSWKTAPRDRIIIGLKEMPETDTFPLVHEHIQFAHCYMDQAGWQNVLMRFIKGHGTLYDLEFLENDQGRRVAAFGFYAGFAGAALGVRDWAFKQTHSDDEDLPAVSPYPNEKALVKDVTKDYKEALATGARKPTVLIIGALGRSGSGAIDLLHKVGIPDANILKWDIKETSRGGPFDEIPQADIFINCIYLSKPIAPFTNMEKLNNPNRRLRTVVDVSADTTNPHNPIPIYTVATVFNKPTVLVPTTAGPKLSVISIDHLPSLLPREASEFFSHDLLPSLELLPQRKTAPVWVRAKKLFDRHCARVKRSSRL
B3: ileS (Streptococcus pneumoniae, UniProt Q04JB0); chain MKLKDTLNLGKTEFPMRAGLPTKEPVWQKEWEYAKLYQRRQELNQGKPHFTLHDGPPYANGNIHVGHAMNKISKDIIVRSKSMSGFYAPFIPGWDTHGLPIEQVLSKQGVKRKEMDLVEYLKLCREYALSQVDKQREDFKRLGVSGDWENPYVTLTPDYEAAQIRVFGEMANKGYIYRGAKPVYWSWSSESALAEAEIEYHDLVSTSLYYANKVKDGKGVLDTDTYIVVWTTTPFTITASRGLTVGADIDYVLVQPAGEARKFVVAAELLTSLSEKFGWADVQVLETYRGQELNHIVTEHPWDTAVEELVILGDHVTTDSGTGIVHTAPGFGEDDYNVGIANNLEVAVTVDERGIMMKNAGPEFEGQFYEKVVPTVIEKLGNLLLAQEEISHSYPFDWRTKKPIIWRAVPQWFASVSKFRQEILDEIEKVKFHSEWGKVRLYNMIRDRGDWVISRQRAWGVPLPIFYAEDGTAIMVAETIEHVAQLFEEHGSSIWWERDAKDLLPEGFTHPGSPNGEFKKETDIMDVWFDSGSSWNGVVVNRPELTYPADLYLEGSDQYRGWFNSSLITSVANHGVAPYKQILSQGFALDGKGEKMSKSLGNTIAPSDVEKQFGAEILRLWVTSVDSSNDVRISMDILSQVSETYRKIRNTLRFLIANTSDFNPAQDTVAYDELRSVDKYMTIRFNQLVKTIRDAYADFEFLTIYKALVNFINVDLSAFYLDFAKDVVYIEGAKSLERRQMQTVFYDILVKITKLLTPILPHTAEEIWSYLEFETEDFVQLSELPEVQTFANQEEILDTWAAFMDFRGQAQKALEEARNAKVIGKSLEAHLTVYPNEVVKTLLEAVNSNVAQLLIVSELTIAEGPAPEAALSFEDVAFTVERATGEVCDRCRRIDPTTAERSYQAVICDHCASIVEENFAEAVAEGFEEK
B4: Saccharopine reductase C154S (Saccharomyces cerevisiae, UniProt P38999); chain MGKNVLLLGSGFVAQPVIDTLAANDDINVTVACRTLANAQALAKPSGSKAISLDVTDDSALDKVLADNDVVISLIPYTFHPNVVKSAIRTKTDVVTSSYISPALRELEPEIVKAGITVMNEIGLDPGIDHLYAVKTIDEVHRAGGKLKSFLSYSGGLPAPEDSDNPLGYKFSWSSRGVLLALRNSAKYWKDGKIETVSSEDLMATAKPYFIYPGYAFVCYPNRDSTLFKDLYHIPEAETVIRGTLRYQGFPEFVKALVDMGMLKDDANEIFSKPIAWNEALKQYLGAKSTSKEDLIASIDSKATWKDDEDRERILSGFAWLGLFSDAKITPRGNALDTLCARLEELMQYEDNERDMVVLQHKFGIEWADGTTETRTSTLVDYGKVGGYSSMAATVGYPVAIATKFVLDGTIKGPGLLAPYSPEINDPIMKELKDKYGIYLKEKTVA
B5: UGP (Trypanosoma brucei, UniProt D3HTY9); chain MPLNPPSAFSGAALACLEKMQASGVEEKCIHIFLIQHALVRKGETGYIPEKSISPVESLPFLQGIETKGENTALLRQAVVLKLNGGLGTGMGLNGPKSLLQVKNGQTFLDFTALQLEHFRQVRNCNVPFMLMNSFSTSGETKNFLRKYPTLYEVFDSDIELMQNRVPKIRQDNFFPVTYEADPTCEWVPPGHGDVYTVLYSSGKLDYLLGKGYRYMFISNGDNLGATLDVRLLDYMHEKQLGFLMEVCRRTESDKKGGHLAYKDVIDETTGQTRRRFVLRESAQCPKEDEDSFQNIAKHCFFNTNNIWINLMELKKMMDEQLGVLRLPVMRNPKTVNPQDSQSTKVYQLEVAMGAAISLFDRSEAVVVPRERFAPVKTCSDLLALRSDAYQVTEDQRLVLCEERNGKPPAIDLDGEHYKMIDGFEKLVKGGVPSLRQCTSLTVRGLVEFGADVSVRGNVVIKNLKEEPLIIGSGRVLDNEVVVVE
B6: BaiA2 (Clostridium scindens, UniProt P19337); chain MNLVQDKVTIITGGTRGIGFAAAKIFIDNGAKVSIFGETQEEVDTALAQLKELYPEEEVLGFAPDLTSRDAVMAAVGQVAQKYGRLDVMINNAGITSNNVFSRVSEEEFKHIMDINVTGVFNGAWCAYQCMKDAKKGVIINTASVTGIFGSLSGVGYPASKASVIGLTHGLGREIIRKNIRVVGVAPGVVNTDMTNGNPPEIMEGYLKALPMKRMLEPEEIANVYLFLASDLASGITATTVSVDGAYRP
B7: carbamoyl phosphate synthetase large subunit M174E/M378E (Escherichia coli, UniProt P00968); chain PKRTDIKSILILGAGPIVIGQACEFDYSGAQACKALREEGYRVILVNSNPATIMTDPEMADATYIEPIHWEVVRKIIEKERPDAVLPTMGGQTALNCALELERQGVLEEFGVTMIGATADAIDKAEDRRRFDVAMKKIGLETARSGIAHTMEEALAVAADVGFPCIIRPSFTEGGSGGGIAYNREEFEEICARGLDLSPTKELLIDESLIGWKEYEMEVVRDKNDNCIIVCSIENFDAMGIHTGDSITVAPAQTLTDKEYQIMRNASMAVLREIGVETGGSNVQFAVNPKNGRLIVIEMNPRVSRSSALASKATGFPIAKVAAKLAVGYTLDELMNDITGGRTPASFEPSIDYVVTKIPRFNFEKFAGANDRLTTQEKSVGEVMAIGRTQQESLQKALRGLEVGATGFDPKVSLDDPEALTKIRRELKDAGADRIWYIADAFRAGLSVDGVFNLTNIDRWFLVQIEELVRLEEKVAEVGITGLNADFLRQLKRKGFADARLAKLAGVREAEIRKLRDQYDLHPVYKRVDTCAAEFATDTAYMYSTYEEECEANPSTDREKIMVLGGGPNRIGQGIEFDYCCVHASLALREDGYETIMVNCNPETVSTDYDTSDRLYFEPVTLEDVLEIVRIEKPKGVIVQYGGQTPLKLARALEAAGVPVIGTSPDAIDRAEDRERFQHAVERLKLKQPANATVTAIEMAVEKAKEIGYPLVVRPSYVLGGRAMEIVYDEADLRRYFQTAVSVSNDAPVLLDHFLDDAVEVDVDAICDGEMVLIGGIMEHIEQAGVHSGDSACSLPAYTLSQEIQDVMRQQVQKLAFELQVRGLMNVQFAVKNNEVYLIEVNPRAARTVPFVSKATGVPLAKVAARVMAGKSLAEQGVTKEVIPPYYSVKEVVLPFNKFPGVDPLLGPEMRSTGEVMGVGRTFAEAFAKAQLGSNSTMKKHGRALLSVREGDKERVVDLAAKLLKQGFELDATHGTAIVLGEAGINPRLVNKVHEGRPHIQDRIKNGEYTYIINTTSGRRAIEDSRVIRRSALQYKVHYDTTLNGGFATAMALNADATEKVISVQEMHAQIK
B8: pol D141A/E143A/G245D (Thermococcus kodakarensis, UniProt P77933); chain 1 MILDTDYITEDGKPVIRIFKKENGEFKIEYDRTFEPYFYALLKDDSAIEEVKKITAERHGTVVTVKRVEKVQKKFLGRPVEVWKLYFTHPQDVPAIRDKIREHPAVIDIYEYDIPFAKRYLIDKGLVPMEGDEELKMLAFAIATLYHEGEEFAEGPILMISYADEEGARVITWKNVDLPYVDVVSTEREMIKRFLRVVKEKDPDVLITYNGDNFDFAYLKKRCEKLGINFALGRDGSEPKIQRMDDRFAVEVKGRIHFDLYPVIRRTINLPTYTLEAVYEAVFGQPKEKVYAEEITTAWETGENLERVARYSMEDAKVTYELGKEFLPMEAQLSRLIGQSLWDVSRSSTGNLVEWFLLRKAYERNELAPNKPDEKELARRRQSYEGGYVKEPERGLWENIVYLDFR; chain 2 SLYPSIIITHNVSPDTLNREGCKEYDVAPQVGHRFCKDFPGFIPSLLGDLLEERQKIKKKMKATIDPIERKLLDYRQRAIKILAN; chain 3 NSYYGYYGYARARWYCKECAESVTAWGREYITMTIKEIEEKYGFKVIYSDTDGFFATIPGADAETVKKKAMEFLKYINAKLPGALELEYEGFYKRGFFVTKKKYAVIDEEGKITTRGLEIVRRDWSEIAKETQARVLEALLKDGDVEKAVRIVKEVTEKLSKYEVPPEKLVIHEQITRDLKDYKATGPHVAVAKRLAARGVKIRPGTVISYIVLKGSGRIGDRAIPFDEFDPTKHKYDAEYYIENQVLPAVERILRAFGYRKEDLRYQKTRQVGLSAWLKPKGT
B9: putA E639A (Bradyrhizobium diazoefficiens, UniProt Q89E26); chain MPNIPPPFTAPYAPDDAEIAARLLPASHLSPPQEARIHRTATRLIEAIRKRDDRLGGVEDMLREFALSTKEGLALMVLAEALLRVPDARTADQFIEDKLGEGDFIHHETKSTAFLVNASAWALGLSARVIQPGETPDGTIGRLVKRLGAPAVRTATRQAMRLMGNHFVLGETIEQALERGKPRSGQKTRYSFDMLGEGARTAADARRYFDAYASAIETIGKAAGNHALPDRPGISVKLSALHPRFEAISRARVMVELVPQLLDLAQRAKAHDLNFTVDAEEADRLELSLDVIAATLADPSLKGWDGFGLAIQAYQKRASAVIDYVDALARAHDRKLMVRLVKGAYWDTEIKRAQERGLDGYPVFTRKAMTDLNYVACASKLLALRPRIFPQFATHNALTVATVLEMAEGSSGFEFQRLHGMGEALYEQLAKDHADIAYRTYAPVGSHRDLLAYLVRRLLENGANSSFVAQAADYRVPVPALLQRPADAIVRPQAAAHPRIPLPCDLFAPERRNSRGVEFGARTALDQLLTDVKAETGDLKPIADATPDQAHAAVAAARAGFAGWSRTPAGIRAAALEQAAHLLESRSAHFIALLQREGGKTLDDALSELREAADFCRYYAAQGRKLFGSETAMPGPTGASNALTMRGRGVFVAISPWNFPLAIFLGQVTAALMAGNSVVAKPAEQTPRIAREAVALLHEAGIPKSALYLVTGDGRIGAALTAHPDIAGVVFTGSTEVARSINRALAAKDGPIVPLIAETGGINAMIADATALPEQVADDVVTSAFRSAGQRCSALRLLFVQEDVADRMIEMVAGAARELKIGDPSDVATHVGPVIDVEAKQRLDAHIARMKTEARLHFAGPAPEGCFVAPHIFELTEAGQLTEEVFGPILHVVRYRPENLERVLRAIERTGYGLTLGVHSRIDDSIEAIIDRVQVGNIYVNRNMIGAVVGVQPFGGNGLSGTGPKAGGPHYLARFATEQTVTINTAAAGGNAALLAGEE
UniProt Q29437, sequence (whole entry, looked up): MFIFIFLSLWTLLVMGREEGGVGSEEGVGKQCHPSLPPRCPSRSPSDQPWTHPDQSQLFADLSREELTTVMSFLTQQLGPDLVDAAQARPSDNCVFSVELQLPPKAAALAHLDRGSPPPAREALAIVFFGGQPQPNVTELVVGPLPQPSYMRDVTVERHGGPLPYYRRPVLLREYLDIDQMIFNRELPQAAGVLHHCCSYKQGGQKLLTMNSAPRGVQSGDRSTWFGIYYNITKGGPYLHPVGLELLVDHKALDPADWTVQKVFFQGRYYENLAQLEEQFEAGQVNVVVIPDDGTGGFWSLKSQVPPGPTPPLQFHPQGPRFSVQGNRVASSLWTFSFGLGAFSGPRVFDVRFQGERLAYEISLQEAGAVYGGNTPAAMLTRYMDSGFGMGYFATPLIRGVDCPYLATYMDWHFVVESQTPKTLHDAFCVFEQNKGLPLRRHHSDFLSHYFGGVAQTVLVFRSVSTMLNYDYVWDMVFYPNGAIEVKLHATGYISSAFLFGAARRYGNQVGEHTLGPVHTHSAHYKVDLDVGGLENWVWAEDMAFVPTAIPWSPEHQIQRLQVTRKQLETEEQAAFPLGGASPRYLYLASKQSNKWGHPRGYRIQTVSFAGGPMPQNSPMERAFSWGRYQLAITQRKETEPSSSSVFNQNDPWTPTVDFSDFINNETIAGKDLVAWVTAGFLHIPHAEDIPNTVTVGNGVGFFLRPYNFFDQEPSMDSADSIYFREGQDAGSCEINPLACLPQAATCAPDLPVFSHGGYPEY

| Substance | substrate | pH | temperature | notes | added | Km [µM] |
| --- | --- | --- | --- | --- | --- | --- |
| B1 (UGT3A2 Y74N) | O=c1ccn([C@@H]2O[C@H](CO[P@@](=O)(O)O[P@@](=O)(O)O[C@H]3O[C@H](CO)[C@@H](O)[C@H](O)[C@H]3O)[C@@H](O)[C@H]2O)c(=O)[nH]1 | pH 7.4 | 37 °C | not purified | 1-OH-pyrene 16 µM, MgCl2 10 mM, alamethicin | 3360 |
| B2 (LYS1 C205S/K99M) | NCCCC[C@H](N)C(=O)O | pH 7.2 | 25 °C | – | NADH and α-Kg | 99000 |
| B3 (ileS) | CC[C@H](C)[C@H](N)C(=O)O | pH 7.2 | 37 °C | – | ATP 2 mM | 0.4 |
| B4 (Saccharopine reductase C154S) | N[C@@H](CCCCN[C@@H](CCC(=O)O)C(=O)O)C(=O)O | pH 9 | 25 °C | – | saccharopine | 18300 |
| Plasma amine oxidase (Bos taurus, UniProt Q29437) | CNCCOc1ccc2cc(CN)ccc2c1 | pH 7.2 | 30 °C | – | – | 0.209 |
| B5 (UGP) | O=c1ccn([C@@H]2O[C@H](COP(=O)(O)OP(=O)(O)OP(=O)(O)O)[C@@H](O)[C@H]2O)c(=O)[nH]1 | pH 7.2 | – | apparent | – | 53 |
| B6 (BaiA2) | C[C@H](CCC(=O)SCCNC(=O)CCNC(=O)[C@H](O)C(C)(C)COP(=O)(O)OP(=O)(O)OC[C@H]1O[C@@H](n2cnc3c(N)ncnc32)[C@H](O)[C@@H]1OP(=O)(O)O)[C@H]1CC[C@H]2[C@@H]3[C@H](O)C[C@@H]4C[C@H](O)CC[C@]4(C)[C@H]3CC[C@]12C | pH 8.7 | 37 °C | – | NAD+ | 23 |
| B7 | Nc1ncnc2c1ncn2[C@@H]1O[C@H](COP(=O)(O)OP(=O)(O)OP(=O)(O)O)[C@@H](O)[C@H]1O | pH 7.6 | – | KCl 100 mM | glutamine 10 mM, ornithine 10 mM | 280 |
| B8 (pol D141A/E143A/G245D) | Nc1nc2c(ncn2[C@H]2C[C@H](O)[C@@H](COP(=O)(O)OP(=O)(O)OP(=O)(O)O)O2)c(=O)[nH]1 | pH 8 | 55 °C | – | – | 9.2 |
| B9 (putA E639A) | O=C(O)[C@@H]1CCCN1 | pH 8 | 23 °C | – | – | 85000 |
